# Measurements of several laboratories.
# Every numbered part comes from another study and shows a few of its results, in no order.

# Block 1 — method: RNA Bind-n-Seq; form: RNA; sample: in vitro; concentration: 365 nM; baseline: no-protein control; reading: higher = stronger binding
# Target: RNA binding protein fox-1 homolog 2, RRM domain, GST-SBP tag (RBFOX2, Homo sapiens, UniProt O43251-10, residues 100-194)
# Setting: natural RNA segment, single round, ends assumed
# Shared flanks, not repeated: GGGAGUUCUACAGUCCGACGAUC … UGGAAUUCUCGGGUGCCAA
# Residues (chain): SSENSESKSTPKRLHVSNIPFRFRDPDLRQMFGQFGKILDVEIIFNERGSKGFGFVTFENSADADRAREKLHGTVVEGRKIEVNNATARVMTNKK
Strand,RBNS enrichment (R)
CAAAUGUAAGUCUUGGAGAAGGGUCCUUCAUGGUGUCCACAUGUGCAGGCUCAGGUAGAGGUCUCAGUGAGUGGACACAGGUAGCUGUGGGUGCCGAGAAAGGAUCUGCC,6.76
UUUUUUGAGCUUUAUUGUGGUUGUUAAUUUGAAGUAAUAAAGUAGAAAAGGACAAAGUGAUAUAGAUCCCUCUGUCUGCCUCUUUGCUCUUGGGGUUUCUCAUCGCUGAC,0.835
GCCUCUCCCCUGCAGCAAACGUUUGCCUGGGCAUUGAGGCAUUUCCAUACAUCUUCUGAAAACUAGGCGGAGGUUUCCAAAUCUCAAUUCUUGACUUCUGUGCACCUGCA,1.05
UCUGGCAUUUAAUACCUACAUGAUUUGUGAGCUACUUCUGCCUUCUCCUUCUCUGCUCUUAAACCUGGAGACGCUUGCUCUGCCUUCUCCCCUAUCACUUCAAGUGUUUA,1.29
GCCUUUCCUCUGGCCCUGCUGCCCCCACACCCAACUCCGAGGGCCCACGCUGGGGAAAGCGGGAAGCGCUCGCUCCCUUUCCCCCAUUAGUGCUCUCUCUGCCUGGAUCC,0.325
UCACCAACCCCAGCUGGGACCACAGGAUGUUGAGCUGUCUUCCCCAGGCCCAGCAGCCAUGCCCCGCCAAGAAGCAUGCUGGGAGUAAGGUCUUUGCCAUCAAGGGUAUU,0.356
AGGUGGUGCUCCAGUGGUUCACAGAAAACAGCAAAUAGUCCCCAGCCCUUGAAGUCACCCGGCCCCCAUGCAAGGUGCCCACAUGUGUCCAUCCCAGCGGCUGGUGCAGG,0.554
CCUCUGUUUUUCUGAAGGCUGUUCCAGCAGGGCUGCCCUGUUCAUCAGCGGAUGUUCACUCUGGCCUGCCGUUCCCCGUGGCAUGCGGGGUGAGGGUGGCUUUCUUCCAG,0.501
CCCUGUUCAAAGGAGAAUGGUGGAUAAUACUGUCUGAGGAAAUCAGAACUUAUUUGAGAAGGAAGCUCUCGUUCCACAUUCCUAGCAACUAUAUUCUCAGGCACACAUAG,0.411
CCUGGUGAGUUAUCAGCCAGUUAAACUUGUAAGCCAGUUUUGUUUAUAAUAAAGAUAUAAGUGGAUUUUAAGGUUCCAUUUUUUUAAGGUUACCCUUGUUUUUCAAAGGU,0.883
CCCGCUCUGGGCUUCUCUCAACCCCAACCCUGGGUUUUCUCCUAGACUCUUGGGCUGCGAUGCAUCACCCUUGUUACCCUGCAGUGGCUCUUACAAAACCACUUCCUCCC,1.01
GAGGCCAUGAGGAGCGCGAGGUCGCCAGCAGCCCCACUGGGCCUCCCACACCAUCUGAGUGACUUGAAUUCCAGGGUUGGGCUCUGUCUUGAGUCUCCACAUCAGUCUCA,0.547

# Block 2 — method: RNA Bind-n-Seq; form: RNA; sample: in vitro; concentration: 200 nM; setting: whole 134-nt RNA, ends assumed; with: 150 mM LiCl; baseline: input library; reading: higher = stronger binding; all molecules: 7-deaza-guanosine replaces G
# Target: Ras GTPase-activating protein-binding protein 1, full length (G3BP1, Homo sapiens, UniProt Q13283)
# Sequence of UniProt Q13283 (whole entry, looked up): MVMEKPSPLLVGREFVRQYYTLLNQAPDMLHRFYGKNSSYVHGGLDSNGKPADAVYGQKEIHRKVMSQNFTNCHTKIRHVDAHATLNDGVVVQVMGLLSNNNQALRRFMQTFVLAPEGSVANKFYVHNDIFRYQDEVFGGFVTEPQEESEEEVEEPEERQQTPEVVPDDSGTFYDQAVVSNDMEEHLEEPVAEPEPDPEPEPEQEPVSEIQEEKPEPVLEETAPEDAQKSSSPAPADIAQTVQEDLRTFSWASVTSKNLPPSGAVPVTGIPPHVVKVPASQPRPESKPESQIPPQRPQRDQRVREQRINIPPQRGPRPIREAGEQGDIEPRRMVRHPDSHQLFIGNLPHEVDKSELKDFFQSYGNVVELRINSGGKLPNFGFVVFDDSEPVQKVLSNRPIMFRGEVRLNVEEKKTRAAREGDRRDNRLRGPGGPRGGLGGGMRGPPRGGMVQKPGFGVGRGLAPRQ
# Shared flanks, not repeated: GGGAGUUCUACAGUCCGACGAUC … UGGAAUUCUCGGGUGUCAAGG
Strand,log2 enrichment
CACAGACAACAUGCACCCACACAGACACAGAGGGAAGGGGUUGGGAUGGGGACAGGGUGCACAGCAGGGCGGGGUAGGACCCCAGCCCCU,-0.519
UCAAGUCCUGUGCUACACAUCGUAUGUACCGAAUCGGAAAAAGGAAAAAGGUGGAAAGUAUUAUGUUACGCCGUUCGGAUCUGCACUUCC,-0.414
UGGGAGGUGGAUUUUGUUUAUUUUUUUAGCUCAUUUCCAGGGGUGGGAAUUUUUUUUUAAUAUGUGUCAUGAAUAAAGUUGUUUUGGAAA,-0.32
CCUGUGCUACACAUCGUAUGUACCGAAUCGGGGCCCCCCCGGCCCCCCCGGCCCCCCCGGGAAAGUAUUAUGUUACGCCGUUCGGAUCUG,0.484
UGUGCUACACAUCGUAUGUACCGAAUCGGGGCCCCCCCGGGCCCCCCCGGGGCCCCCCCGGGGAAAGUAUUAUGUUACGCCGUUCGGAUC,-0.084
CAAGUCCUGUGCUACACAUCGUAUGUACCGAAUCGGGUUUGGGAAAAAGGGAGGGAAAGUAUUAUGUUACGCCGUUCGGAUCUGCACUUC,0.365
GCAGGAAGUAAAAACAAAUGGAAAUGCUUCGGAUAGUGGCAGGGGUGGGGGUUGCUAAGGAACGGGUGGGAUGGGAGUGGGUAAAGAGUU,0.305
UGGGAGGUGGAUUUUGUUUAUCUUUUUAGCUCAUUUCCAGGGGUGGGAAUUUUUUUUUAAUAUGUGUCAUGAAUAAAGUUGUUUUUGAAA,-0.304
UGGGAGGUGGAUUUUGUUUAUUUUUUUAGCUCAUUUCCAGGGGUGGGAAUUUUUUUUUAAUAUGGGUCAUGAAUAAAGUUGUUUUUGAAA,0.266
UGGCCCUGGUGGCAUGCGGGGAGGAAGAGGUGGCCUCAUGGAUCGUGGUGGUCCCGGUGGAAUGUUCAGAGGUGGCCGUGGUUGAGACAG,-0.229
CACAGACAACACGCACCCACACAGACACAGAGGGAAGGGGUUGGGAUGGGGACAGGGUGCACAGCAGGGCGGGGUAGGACCCCAGCCCCU,-0.179

# Block 3 — method: protein binding microarray; form: double-stranded DNA, one strand shown; sample: in vitro; concentration: not given; baseline: not given; reading: higher = stronger binding
# Target: Histone acetyltransferase KAT6A, both winged helices, GST fusion (KAT6A, Homo sapiens, UniProt Q92794, residues 1-181)
# Setting: 8-mer, flanks averaged, mean of 2 arrays, mostly near background
# Residues (chain): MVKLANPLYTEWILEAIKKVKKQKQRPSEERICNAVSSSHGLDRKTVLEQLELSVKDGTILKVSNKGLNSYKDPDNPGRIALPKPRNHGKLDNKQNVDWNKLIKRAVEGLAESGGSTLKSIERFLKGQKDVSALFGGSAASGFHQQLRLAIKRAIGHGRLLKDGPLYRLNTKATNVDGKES
Strand,E-score
CACAGTGG,-0.0627
CTTGCAAG,0.0974
GATCCTAC,-0.0872
AGATCTGG,-0.149
GTCCAATA,0.119
CGAGCTGA,-0.0645
AAGAGCGA,0.0331
ACAATAGC,-0.0221
GTAAGACA,-0.0158
CTAGAGGC,-0.00526
AAAATTGC,0.116
CTCGTGCA,0.0139
ATGTGAGA,-0.113
ATAGGTAA,-0.17
ACAAAATA,-0.108
GGTGCCGA,0.241
AGCAGCCA,-0.141
AAAAACTA,0.0343
AAGTTGTA,-0.032
AGAACCGA,-0.00089
TAAGGGCA,-0.109
AGCCCGAC,-0.0297
ATGCTGTC,-0.09
CGCGTAAA,0.292
CATGACCA,-0.154

# Block 4 — method: RNA Bind-n-Seq; form: RNA; sample: in vitro; concentration: not given; baseline: input RNA pool; reading: higher = stronger binding
# Target: RING finger protein unkempt homolog, zinc fingers 1-6, GST-SBP tag (UNK, Homo sapiens, UniProt Q9C0B0, residues 30-357)
# Setting: RNA with constant flanks, human-mouse chimeric sites, ends assumed
# Shared flanks, not repeated: GGGAGUUCUACAGUCCGACGAUC … CAACAGAGGAUUGAGCAUCA
# Construct (chain): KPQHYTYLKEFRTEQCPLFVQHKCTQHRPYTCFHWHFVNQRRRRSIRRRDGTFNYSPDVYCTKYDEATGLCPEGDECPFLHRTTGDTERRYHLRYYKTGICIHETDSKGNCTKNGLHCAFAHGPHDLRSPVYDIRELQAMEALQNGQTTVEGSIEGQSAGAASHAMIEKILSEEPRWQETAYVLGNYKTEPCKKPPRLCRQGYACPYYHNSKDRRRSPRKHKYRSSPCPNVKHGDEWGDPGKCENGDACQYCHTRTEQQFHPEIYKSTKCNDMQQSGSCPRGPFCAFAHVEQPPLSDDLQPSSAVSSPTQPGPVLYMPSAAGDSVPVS
Strand,bound/input enrichment
UGGCGCCUGCGCUCCCCACUCGUGUUUUUAAGUGUAUUUUUAUAAGAUACAUGUAUUUACAAUUGAGUUUUUGAUUAUAUAAUACUGAAUGCUACUGGAGAUUAUGAAAAAUGUUUCAAU,0.256 ratio
UCAGUCUUUUUGUACAGCUUUGUAAAUUCUUAACAUUUUUAUAUUGCCAUGUUUAUUUUGUUUGGGUAAUUUGGUUCAUACAUGGCCUAGCUAAGGUAAUGAACAUCUUUUUCAGUAAUU,1.14 ratio
CUGGCCUGGCCCUCCCCAGGGGCCUCCUUUCGUAUAGUAACUGUCAGUGCAUCAGAUACUUUCAGCUGCAACUCCCUACUGGGUGGGGCACCUAUCUCAGGCAGAAGGUUUUGGUACCCU,0.288 ratio
AAAGUGGACUAUGGCGAGUACAUGGAUAAAAACAAUGUGAGGCGGCAAGCAACAACAAUCAUAGCUGAUAACAUUAUAUUUCUGAGUGACCAGACAAAAGAGAAGGAGUAGAAAGGAUGA,3.21 ratio
AAAGAGAAACUAAAGCAACUAAUAGAGGAAGAGGAUUGCAAAGAGAAUUUCAUAGAGAAACUAGGAUUUAUUAGCAAACAUGAGUUAGUAUUCCAGACGUCUCAGAAACCCCAGCCAAAC,2.83 ratio
GUAUACGGUUAUCGAGGAAAGGACUGUAGAGCUAAUGUUUACCUUCUUCCCACAGGGGAGAUAGUUUAUUUUAUCGCCUCAGUGGUAGUCCUGUUUAAUUAUGAGGAGAGGACUCAGCGA,0.257 ratio
GAGUCGAGCAAACUUGAAACAAUUCGUUAUCUUGCAGAGCUUCGGUGCACUUGCUUGGCGAUAGCAUUGGGGUUUUAUAGGUUCUGGAAGGAGAACUUUAAUGCUCACUGCCGCUGCUGC,0.254 ratio
GUCAACAGCUGCCUCAACCCCAUCCUCUAUGCUUUCUUGGAUGAGAACUUCAAGGCCUGCUUCCGCAAGUUCUGCUGUGCAUCUGCCCUGCACCGGGACGUGCAGGUGUCUGACCGCGUG,0.378 ratio
GCUCCUCCCCGCUCUGCAGCCUGGGGACACUGGGCUGGGACCAGAAUCCAGCUUUCUUUUAAAACUCUCAGUGUAACUGUAUCCCGUUUUUUUCUUUUUUUUUUAAAAGAAAAAAACUUU,0.419 ratio
CUGAGGAUACCACUGAAGAGACCUUAAAAGAAUCAUUUUGACGGCUCCGUUCGGGCAGAAUAGUCACUGAUCGGGAAACUGGUUCUUCCAAAGGGUUUGGUUUUGUAGACUUUAAUAGUG,0.799 ratio
UUGCCUGAGAACGAGGAUGAGCUGGAGAGCACCAACAGGCGCUACACCAAGAGGGACUGCAGCACUUUCCUCAGAACUAGUGAGACGGGCAUCGUGGAUCAGGUUAUGGUCACUCUCAAC,0.0889 ratio

# For quick reference, copied from above (block 4):
Strand,bound/input enrichment
GUAUACGGUUAUCGAGGAAAGGACUGUAGAGCUAAUGUUUACCUUCUUCCCACAGGGGAGAUAGUUUAUUUUAUCGCCUCAGUGGUAGUCCUGUUUAAUUAUGAGGAGAGGACUCAGCGA,0.257 ratio
GAGUCGAGCAAACUUGAAACAAUUCGUUAUCUUGCAGAGCUUCGGUGCACUUGCUUGGCGAUAGCAUUGGGGUUUUAUAGGUUCUGGAAGGAGAACUUUAAUGCUCACUGCCGCUGCUGC,0.254 ratio
GUCAACAGCUGCCUCAACCCCAUCCUCUAUGCUUUCUUGGAUGAGAACUUCAAGGCCUGCUUCCGCAAGUUCUGCUGUGCAUCUGCCCUGCACCGGGACGUGCAGGUGUCUGACCGCGUG,0.378 ratio
